Measured values collected from several papers.
Compare with care: the assays were run in different laboratories. Numbers after ± are the reported error.

Structure (SMILES)	test	test system	setting	how to read	endpoint	result
O=c1c(O)c(-c2cc(O)ccc2O)oc2cc(O)cc(O)c12	DPPH radical scavenging	–	250 µg/mL	–	inhibition	69.5 ± 1.11%
N=C(N)NCCC[C@H](NC(=O)[C@@H]1CCCN1C(=O)[C@@H]1CSSC[C@H](N)C(=O)N[C@@H](Cc2ccc(O)cc2)C(=O)N[C@@H](Cc2ccccc2)C(=O)N[C@@H](CCC(N)=O)C(=O)N[C@@H](CC(N)=O)C(=O)N1)C(=O)NCC(N)=O	–	male Sprague-Dawley rat, conscious	intra-arterial, 20 ng/kg	baseline: pre-injection baseline	peak heart rate decrease	56 beats/min
CC(C)C[C@H](NC(=O)[C@H](CCCCN)NC(=O)[C@H](CCCNC(=N)N)NC(=O)[C@@H](CC(C)C)NC(=O)[C@H](Cc1c[nH]c2ccccc12)NC(=O)[C@H](CC(=O)O)NC(=O)[C@H](CCCCN)NC(=O)[C@@H](CC(C)C)NC(=O)[C@H](CCCNC(=N)N)NC(=O)[C@H](CCC(N)=O)NC(=O)[C@@H](NC(=O)[C@@H](CC(C)C)NC(=O)[C@H](CCCNC(=N)N)NC(=O)[C@H](CCCCN)NC(=O)[C@H](Cc1ccc(C(C)(C)C)cc1)NC(=O)CN)C(C)C)C(=O)N[C@H](C(N)=O)C(C)C	ELISA	C57BL/6 mouse, catheter infection, peri-catheter tissue	dose not given, 3 d	baseline: untreated infected	IL-17A level	increased
COc1nc(CC=C(C)CC=CC(C)=CC(C)C(OC2OC(CO)C(O)C(O)C2O)C(C)=CCO)c(C)c(O)c1OC (stereo not shown)	H&E staining	mouse, ischaemia-reperfusion AKI	dose not given	–	tubular necrosis	decreased
CC(C)C[C@H](NC=O)C(=O)N[C@@H](C)C(=O)N[C@@H](C)C(=O)N[C@@H](CC(=O)O)C(=O)N[C@@H](CC(C)C)C(=O)N[C@@H](CC(C)C)C(=O)N[C@@H](C)C(=O)N[C@@H](C)C(=O)N[C@@H](CC(C)C)C(=O)NCC(=O)N[C@@H](CC(=O)O)C(=O)N[C@@H](CC(C)C)C(=O)N[C@@H](CC(C)C)C(=O)N[C@@H](CCCCN)C(=O)N[C@@H](Cc1c[nH]c2ccccc12)C(=O)N[C@@H](CC(C)C)C(=O)N[C@@H](CC(C)C)C(=O)N[C@@H](CC(=O)O)C(=O)N[C@@H](C)C(=O)N[C@@H](CC(C)C)C(=O)N[C@@H](C)C(=O)N[C@@H](CCCCN)C(=O)N[C@@H](CC(C)C)C(=O)N[C@@H](C)C(=O)N[C@@H](CCCCN)C(=O)N[C@@H](CCCCN)C(=O)O (racemic)	carboxyfluorescein release, stopped-flow fluorescence	POPC vesicles 50 µM	up to 1 µM, pH 7.5, peptide/lipid 1:50	–	time constant	650 s
CC[C@H](C)[C@H](NC(=O)[C@H](Cc1c[nH]c2ccccc12)NC(=O)[C@H](CCCNC(=N)N)NC(=O)[C@H](CCCCN)NC(=O)[C@H](CC(C)C)NC(=O)[C@H](CC(=O)O)NC(=O)[C@H](Cc1ccccc1)NC(=O)[C@H](C)NC(=O)[C@H](Cc1ccc(O)cc1)NC(=O)[C@H](CC(N)=O)NC(=O)[C@H](Cc1ccc(O)cc1)NC(=O)[C@H](CCCNC(=N)N)NC(=O)[C@H](Cc1ccc(O)cc1)NC(=O)[C@H](Cc1ccc(O)cc1)NC(=O)[C@@H](NC(=O)[C@H](CC(C)C)NC(=O)[C@H](C)NC(=O)[C@H](CC(N)=O)NC(=O)[C@H](Cc1ccc(O)cc1)NC(C)=O)[C@@H](C)CC)C(=O)N[C@@H](Cc1ccc(O)cc1)C(=O)N[C@@H](CC(C)C)C(N)=O	item: HA-02 tetramer	antigen-experienced tetramer+ CD4 T cells, healthy adults, HLA-DRB1*0101	dose not given	–	α4β7+ CCR9+ cells	9.09%
CC(COC(=O)c1ccccc1)OC(=O)C(N)C(C)C (mixture of isomers)	–	Caco-2 cell homogenate	prodrug to BA-PG step	–	hydrolysis rate constant	0.021 min⁻¹
CCc1noc(CC)c1C(=O)O[C@H]1C(C)=C[C@]23C(=O)[C@@H](C=C(CO)[C@@H](O)[C@]12O)[C@H]1[C@@H](C[C@H]3C)C1(C)C	–	mouse, B16 melanoma	topical, 0.1% hydroalcoholic gel, 3 months, two consecutive days	–	tumour-free animals	90%
CC(C)C[C@H]1NC(=O)[C@H](NC(=O)CN)CSSC[C@H]2NC(=O)[C@H]3CSSC[C@H](C(=O)N[C@H](CC(N)=O)C(=O)N[C@H](Cc4ccccc4)C(=O)N[C@H](CO)C(=O)N[C@H](Cc4ccccc4)C(N)=O)NC(=O)[C@@H](CC(C)C)NC(=O)[C@@H](CCCCN)NC(=O)[C@@H](Cc4ccccc4)NC(=O)[C@@H](CC(C)C)NC(=O)[C@@H](CCCCN)NC(=O)[C@@H](CO)NC(=O)[C@@H](CSSC[C@@H](NC(=O)[C@@H](CCCCN)NC(=O)[C@@H](Cc4c[nH]c5ccccc45)NC(=O)[C@@H](Cc4c[nH]c5ccccc45)NC(=O)[C@@H](Cc4ccccc4)NC(=O)[C@@H](CCC(=O)O)NC1=O)C(=O)N[C@H](CC(N)=O)C(=O)N1CCC[C@@H]1C(=O)N[C@H](CC(N)=O)C(=O)N[C@H](CC(=O)O)C(=O)N[C@H](CC(=O)O)C(=O)N[C@H](CCCCN)C(=O)N3)NC(=O)[C@@H](CCCCN)NC(=O)[C@@H](CC(C)C)NC(=O)[C@@H](CCCCN)NC(=O)[C@H]1CCCN1C(=O)[C@@H](CCCNC(=N)N)NC2=O	–	D2.mdx mouse	subcutaneous, 1 mg/kg, six weeks, 20 eccentric contractions	–	protection from contraction injury	~30%
CN(C)CCN(Cc1ccccc1)C(=O)c1cc(-c2ccc(F)cc2)n2nc(C(C)(C)C)cc2n1	Barnes maze probe trial	Tg6799 mouse	dose not given	baseline: untreated	distance travelled	no effect

For quick reference, copied from above:
Structure (SMILES)	test	test system	setting	how to read	endpoint	result
CC(C)C[C@H](NC=O)C(=O)N[C@@H](C)C(=O)N[C@@H](C)C(=O)N[C@@H](CC(=O)O)C(=O)N[C@@H](CC(C)C)C(=O)N[C@@H](CC(C)C)C(=O)N[C@@H](C)C(=O)N[C@@H](C)C(=O)N[C@@H](CC(C)C)C(=O)NCC(=O)N[C@@H](CC(=O)O)C(=O)N[C@@H](CC(C)C)C(=O)N[C@@H](CC(C)C)C(=O)N[C@@H](CCCCN)C(=O)N[C@@H](Cc1c[nH]c2ccccc12)C(=O)N[C@@H](CC(C)C)C(=O)N[C@@H](CC(C)C)C(=O)N[C@@H](CC(=O)O)C(=O)N[C@@H](C)C(=O)N[C@@H](CC(C)C)C(=O)N[C@@H](C)C(=O)N[C@@H](CCCCN)C(=O)N[C@@H](CC(C)C)C(=O)N[C@@H](C)C(=O)N[C@@H](CCCCN)C(=O)N[C@@H](CCCCN)C(=O)O (racemic)	carboxyfluorescein release, stopped-flow fluorescence	POPC vesicles 50 µM	up to 1 µM, pH 7.5, peptide/lipid 1:50	–	time constant	650 s
